Measured values collected from several papers.
Parts stem from different laboratories: compare values within a part only.

Series 1 — method: universal PBM; form: double-stranded DNA, one strand shown; sample: in vitro; concentration: 600 nM; reading: higher = stronger binding
Target: Sal-like protein 4, full length isoform A (SALL4, Homo sapiens, UniProt Q9UJQ4, residues 1-1053)
Sequence of UniProt Q9UJQ4 (whole entry, looked up): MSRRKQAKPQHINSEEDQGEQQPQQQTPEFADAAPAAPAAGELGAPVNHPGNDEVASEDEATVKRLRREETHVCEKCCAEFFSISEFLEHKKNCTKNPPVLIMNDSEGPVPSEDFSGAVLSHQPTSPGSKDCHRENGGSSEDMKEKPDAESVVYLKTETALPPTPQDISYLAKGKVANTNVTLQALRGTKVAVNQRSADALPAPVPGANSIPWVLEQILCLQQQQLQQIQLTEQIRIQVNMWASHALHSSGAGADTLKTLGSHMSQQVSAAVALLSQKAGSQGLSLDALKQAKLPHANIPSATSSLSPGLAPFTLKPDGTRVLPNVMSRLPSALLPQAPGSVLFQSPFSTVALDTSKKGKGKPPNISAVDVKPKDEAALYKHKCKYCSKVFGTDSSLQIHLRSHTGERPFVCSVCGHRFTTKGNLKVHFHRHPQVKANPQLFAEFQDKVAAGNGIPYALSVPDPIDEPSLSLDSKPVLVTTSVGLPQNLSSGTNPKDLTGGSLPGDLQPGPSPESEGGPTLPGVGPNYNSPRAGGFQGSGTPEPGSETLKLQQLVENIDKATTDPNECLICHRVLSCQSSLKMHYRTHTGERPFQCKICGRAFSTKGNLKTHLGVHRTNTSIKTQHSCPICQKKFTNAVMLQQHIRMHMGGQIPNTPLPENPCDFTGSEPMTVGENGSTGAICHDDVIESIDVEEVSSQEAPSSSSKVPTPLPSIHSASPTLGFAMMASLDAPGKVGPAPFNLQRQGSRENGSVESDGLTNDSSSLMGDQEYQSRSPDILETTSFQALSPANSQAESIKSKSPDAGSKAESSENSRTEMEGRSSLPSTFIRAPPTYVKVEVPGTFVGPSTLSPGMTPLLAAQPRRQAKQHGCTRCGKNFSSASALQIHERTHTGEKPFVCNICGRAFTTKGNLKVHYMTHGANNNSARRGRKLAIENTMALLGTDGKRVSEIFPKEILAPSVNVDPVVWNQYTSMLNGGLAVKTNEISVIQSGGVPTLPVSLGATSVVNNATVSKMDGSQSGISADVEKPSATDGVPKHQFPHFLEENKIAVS
Setting: 8-mer, flanks averaged, mean of replicates
Oligonucleotide | E-score
ACTATCGC | 0.0354
TGTGTAAA | 0.287
AAAAAAAA | 0.37
AAGCCAGT | -0.00613
CGTGCCTC | -0.22
ATGGGAAA | 0.0238
GAGTCGCC | -0.378
GATTGGAA | -0.0261

Series 2 — method: protein-binding microarray; form: double-stranded DNA, one strand shown; sample: in vitro; concentration: 2540 nM top; setting: 60-bp whole probe; with: salmon DNA 0.4 mg/ml; reference: random background probes; reading: higher = stronger binding; shared flanks, not repeated: GCCTAGCAC … GTCTTGATTCGCTTGACGCTGCTG
Target: Interferon regulatory factor 3, full length, phosphomimetic (IRF3, Homo sapiens, UniProt Q14653, residues 1-427, S386D/S396D/S398D/S402D/T404D/S405D)
Construct (chain): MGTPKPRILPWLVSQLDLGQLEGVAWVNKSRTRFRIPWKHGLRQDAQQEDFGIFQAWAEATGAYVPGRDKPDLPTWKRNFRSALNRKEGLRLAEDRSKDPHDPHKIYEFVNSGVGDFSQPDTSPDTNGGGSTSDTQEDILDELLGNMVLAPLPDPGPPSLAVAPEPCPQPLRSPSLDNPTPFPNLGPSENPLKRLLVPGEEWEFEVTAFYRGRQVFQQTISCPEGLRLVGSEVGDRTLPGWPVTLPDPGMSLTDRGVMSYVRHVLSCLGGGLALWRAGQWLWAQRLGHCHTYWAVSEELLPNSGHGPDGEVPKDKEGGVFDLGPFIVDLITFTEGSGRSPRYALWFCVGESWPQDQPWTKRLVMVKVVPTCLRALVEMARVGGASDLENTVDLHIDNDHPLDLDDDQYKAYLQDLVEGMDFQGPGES
Oligonucleotide | fitted relative affinity [z-score]
TTAGAACTGGGGACAGGATTAGTGCTA | -0.622
CTGGACCCACTTCCAAATGGGTGCTAG | 0.626
AACGGTTTCGGACTGGGGACGTGCTAG | 4.32
GACGGTTTCGGTATCGGTACGTGCTAG | 8.67
TCAACTTTCCAAAGCGTACTGTGCTAG | 2.82
GCCGATCTCAGTATCGAGACGTGCTAG | 2.37

Series 3 — method: protein binding microarray; form: double-stranded DNA, one strand shown; sample: in vitro; concentration: not given; reference: not given; reading: higher = stronger binding
Target: Histone acetyltransferase KAT6A, winged helix 2, GST fusion (KAT6A, Homo sapiens, UniProt Q92794, residues 85-181)
Setting: 8-mer, flanks averaged, mean of 2 arrays, mostly near background
Construct (chain): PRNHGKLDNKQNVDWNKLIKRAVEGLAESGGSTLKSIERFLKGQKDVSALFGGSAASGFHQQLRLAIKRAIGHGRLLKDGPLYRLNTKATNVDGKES
Oligonucleotide | E-score
AATTGGAG | -0.179
AGCACATC | -0.0617
AGTTACTA | -0.0946
CCCAGCAC | -0.0374
GGGGGGAA | -0.0987
CCACATGC | -0.0357
GCTACGCA | 0.126
CTCGCATC | 0.0833

Single results of other studies
Molecule | target | test | system | conditions | scale | quantity | result
PhoQ, residues 284 288 289 292 302 303 SLKLQV | PhoP, residues 12 14 15 18 19 TQAIL (Escherichia coli, UniProt P23836) | Sort-seq, refers to: YFP reporter | E. coli | PhoQ-PhoP variant library, with: 10 µM Mg2+ | reference: high Mg2+ state, higher = stronger signaling | fold induction | 8.26

For quick reference, copied from above (series 1):
Oligonucleotide | E-score
AAAAAAAA | 0.37
